Published values collected from several papers.
T1: RAD21/STAG2 Scc1 80-1060?, x; chain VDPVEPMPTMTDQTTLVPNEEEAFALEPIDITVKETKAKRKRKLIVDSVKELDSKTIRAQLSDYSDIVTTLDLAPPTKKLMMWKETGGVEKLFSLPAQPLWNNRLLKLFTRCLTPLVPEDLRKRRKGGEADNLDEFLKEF; chain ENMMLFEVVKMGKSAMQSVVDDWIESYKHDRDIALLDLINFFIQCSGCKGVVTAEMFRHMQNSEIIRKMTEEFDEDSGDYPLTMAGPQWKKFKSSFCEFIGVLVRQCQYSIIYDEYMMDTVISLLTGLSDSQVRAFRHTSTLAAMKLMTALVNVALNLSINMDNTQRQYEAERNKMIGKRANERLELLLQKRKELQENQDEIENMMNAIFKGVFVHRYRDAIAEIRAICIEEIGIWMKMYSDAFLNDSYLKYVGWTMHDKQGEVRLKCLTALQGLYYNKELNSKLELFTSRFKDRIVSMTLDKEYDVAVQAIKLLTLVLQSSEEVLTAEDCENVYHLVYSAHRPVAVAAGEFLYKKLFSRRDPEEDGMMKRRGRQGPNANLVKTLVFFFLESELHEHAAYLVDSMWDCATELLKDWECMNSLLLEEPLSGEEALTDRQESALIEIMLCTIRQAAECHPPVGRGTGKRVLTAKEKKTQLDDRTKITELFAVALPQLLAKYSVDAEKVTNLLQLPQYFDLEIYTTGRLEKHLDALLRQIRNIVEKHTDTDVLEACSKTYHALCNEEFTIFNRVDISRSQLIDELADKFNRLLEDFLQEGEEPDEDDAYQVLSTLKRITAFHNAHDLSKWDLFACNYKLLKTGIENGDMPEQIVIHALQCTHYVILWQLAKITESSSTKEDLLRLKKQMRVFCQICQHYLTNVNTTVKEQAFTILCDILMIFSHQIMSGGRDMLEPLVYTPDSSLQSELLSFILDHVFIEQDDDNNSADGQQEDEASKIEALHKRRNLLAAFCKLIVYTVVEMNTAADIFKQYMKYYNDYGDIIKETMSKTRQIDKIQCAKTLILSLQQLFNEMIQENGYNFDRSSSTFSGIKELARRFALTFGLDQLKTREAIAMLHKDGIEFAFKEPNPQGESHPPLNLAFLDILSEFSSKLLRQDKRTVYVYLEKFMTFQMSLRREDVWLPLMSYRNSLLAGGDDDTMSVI
B1: KTN1 965-1124 (Homo sapiens, UniProt Q86UP2); sequence looked up; chain DVQDENKLFKSQIEQLKQQNYQQASSFPPHEELLKVISEREKEISGLWNELDSLKDAVEHQRKKNNDLREKNWEAMEALASTEKMLQDKVNKTSKERQQQVEAVELEAKEVLKKLFPKVSVPSNLSYGEWLHGFEKKAKECMAGTSGSEEVKVLEHKLKE
B2: ATG8a (Oryza sativa, UniProt Q69RC4); chain MARTSFKLEHPLERRQAESARIREKYSDRIPVIVEKADKTDVPEIDKKKYLVPADLTVGQFVYVVRKRIKLSPEKAIFVFVKNTLPPTASLMSAIYEENKDEDGFLYMTYSGENTFGSA
B3: hrdB 1-511 (Streptomyces coelicolor, UniProt P18183); chain MSASTSRTLPPEIAESVSVMALIERGKAEGQIAGDDVRRAFEADQIPATQWKNVLRSLNQILEEEGVTLMVSAAEPKRTRKSVAAKSPAKRTATKAVAAKPVTSRKATAPAAPAAPATEPAAVEEEAPAKKAAAKKTTAKKATAKKTTAKKAAAKKTTAKKEDGELLEDEATEEPKAATEEPEGTENAGFVLSDEDEDDAPAQQVAAAGATADPVKDYLKQIGKVPLLNAEQEVELAKRIEAGLFAEDKLANSDKLAPKLKRELEIIAEDGRRAKNHLLEANLRLVVSLAKRYTGRGMLFLDLIQEGNLGLIRAVEKFDYTKGYKFSTYATWWIRQAITRAMADQARTIRIPVHMVEVINKLARVQRQMLQDLGREPTPEELAKELDMTPEKVIEVQKYGREPISLHTPLGEDGDSEFGDLIEDSEAVVPADAVSFTLLQEQLHSVLDTLSEREAGVVSMRFGLTDGQPKTLDEIGKVYGVTRERIRQIESKTMSKLRHPSRSQVLRDYLD
B4: MSMEG_2064 (Mycolicibacterium smegmatis, UniProt A0QU37); chain MAGSAPLRILVYSDNPRTREQVRLALGKRIHPELPEIEYVDVATAPMAISQMDAGGFDLAILDGEATPAGGMGVAKQVKDEIDDCPPILVLTGRADDAWLAKWSRAEAAVPHPIDPIRLSDAVVSLLRAPAQ
B5: WAPL 1-411 (Homo sapiens, UniProt Q7Z5K2); chain MTSRFGKTYSRKGGNGSSKFDEVFSNKRTTLSTKWGETTFMAKLGQKRPNFKPDIQEIPKKPKVEEESTGDPFGFDSDDESLPVSSKNLAQVKCSSYSESSEAAQLEEVTSVLEANSKISHVVVEDTVVSDKCFPLEDTLLGKEKSTNRIVEDDASISSCNKLITSDKVENFHEEHEKNSHHIHKNADDSTKKPNAETTVASEIKETNDTWNSQFGKRPESPSEISPIKGSVRTGLFEWDNDFEDIRSEDCILSLDSDPLLEMKDDDFKNRLENLNEAIEEDIVQSVLRPTNCRTYCRANKTKSSQGASNFDKLMDGTSQALAKANSESSKDGLNQAKKGGVSCGTSFRGTVGRTRDYTVLHPSCLSVCNVTIQDTMERSMDEFTASTPADLGEAGRLRKKADIATSKTTT
B6: PIN2 167-485 (Arabidopsis thaliana, UniProt Q9LU77); chain ETAGSITSFRVDSDVISLNGREPLQTDAEIGDDGKLHVVVRRSSAASSMISSFNKSHGGGLNSSMITPRASNLTGVEIYSVQSSREPTPRASSFNQTDFYAMFNASKAPSPRHGYTNSYGGAGAGPGGDVYSLQSSKGVTPRTSNFDEEVMKTAKKAGRGGRSMSGELYNNNSVPSYPPPNPMFTGSTSGASGVKKKESGGGGSGGGVGVGGQNKEMNMFVWSSSASPVSEANAKNAMTRGSSTDVSTDPKVSIPPHDNLATKAMQNLIENMSPGRKGHVEMDQDGNNGGKSPYMGKKGSDVEDGGPGPRKQQMPPASV
B7: CENPW K29A/K30A/R34A/E36A (Homo sapiens, UniProt Q5EE01); sequence looked up; chain MALSTIVSQRKQIKRKAPRGFLKRVFKRAAPQLALAKSGDLLVHLNCLLFVHRLAEESRTNACASKCRVINKEHVLAAAKVILKKSRG
B8: NuoA (Mycolicibacterium smegmatis, UniProt A0QU36); chain MALYTPILILGAIAAVFAVVSVGIALVIGPRRFNRSKLEAYECGIDPLPPVAAGLTGQRIPIRYYLIAMLFIVFDIEIVFLYPWAVAFDSLGLFAVIEMLLFMLTVFVAYAYVWRRGGLNWD
B9: ife-1 (Caenorhabditis elegans, UniProt O45551); chain MTETEQTTAPIYPLKRNWTWWYLNDERNKSWEDRLKKVYTFNTVSEFWALYDAIRPPSGLNALCDYNVFRDDIQPMWEVPENSNGGRWLIVIDKGKTPEMVDAIWLEILMALVGEQFGKDMESICGLVCNVRGKGSKISVWTKDCNDDETNMRIGVVLKEKLMAASKDHSKPLFDVIRYEDHESCQKKTSSVVKAKLSLHSSDAPVAEKSAV
B10: VAM3 (Saccharomyces cerevisiae, UniProt Q12241); chain MSFFDIEAQSSKGNSQQEPQFSTNQKTKELSNLIETFAEQSRVLEKECTKIGSKRDSKELRYKIETELIPNCTSVRDKIESNILIHQNGKLSADFKNLKTKYQSLQQSYNQRKSLFPLKTPISPGTSKERKDIHPRTEAVRQDPESSYISIKVNEQSPLLHNEGQHQLQLQEEQEQQQQGLSQEELDFQTIIHQERSQQIGRIHTAVQEVNAIFHQLGSLVKEQGEQVTTIDENISHLHDNMQNANKQLTRADQHQRDRNKCGKVTLIIIIVVCMVVLLAVLS
B11: NVJ1 229-321 (Saccharomyces cerevisiae, UniProt P38881); chain NREKDCSSSSEVESQSKCRKESTAEPDSLSRDTRTTSSLKSSTSFPISFKGSIDLKSLNQPSSLLHIQVSPTKSSNLDAQVNTEQAYSQPFRY
B12: Cbx1 (Mus musculus, UniProt P83917); chain MGKKQNKKKVEEVLEEEEEEYVVEKVLDRRVVKGKVEYLLKWKGFSDEDNTWEPEENLDCPDLIAEFLQSQKTAHETDKSEGGKRKADSDSEDKGEESKPKKKKEESEKPRGFARGLEPERIIGATDSSGELMFLMKWKNSDEADLVPAKEANVKCPQVVISFYEERLTWHSYPSEDDDKKDDKN
B13: EPS15 569-671 (Homo sapiens, UniProt P42566); chain SGVTDENEVTTAVTEKVCSELDNNRHSKEEDPFNVDSSSLTGPVADTNLDFFQSDPFVGSDPFKDDPFGKIDPFGGDPFKGSDPFASDCFFRQSTDPFATSST
B14: NYV1 (Saccharomyces cerevisiae, UniProt Q12255); chain MKRFNVSYVEVIKNGETISSCFQPFQKNENYGTITSANEQITPVIFHNLIMDMVLPKVVPIKGNKVTKMSMNLIDGFDCFYSTDDHDPKTVYVCFTLVDMPKILPIRILSGLQEYESNATNELLSSHVGQILDSFHEELVEYRNQTLNSSGNGQSSNGNGQNTISDIGDATEDQIKDVIQIMNDNIDKFLERQERVSLLVDKTSQLNSSSNKFRRKAVNIKEIMWWQKVKNITLLTFTIILFVSAAFMFFYLW
B15: rplK (Mycobacterium smegmatis, UniProt A0QS45); chain MAPKKKVAGLIKLQIQAGQANPAPPVGPALGQHGVNIMEFCKAYNAATESQRGNVIPVEITVYEDRSFTFALKTPPAAKLLLKAAGVQKGSGEPHKTKVAKVTWDQVREIAETKKADLNANDIDAAAKIIAGTARSMGITVE
B16: ROPGAP3 1-153 (Arabidopsis thaliana, UniProt Q8GYY5); chain MTNFSRSKSTGTIGFPEFKPTRPGPDKYENIHNDDDEYEEGHSTTSTDYYDASTPLSSHASRSGNGSGSGQLTVVDLLAAVLRKSLVMSCAMERGEDDVVASMDIGWPTEVKHVSHVTFDRFNGFLGLPSELEPEVPPRAPSASVSVFGVSAK
Chain of UniProt P49951 (whole entry, looked up): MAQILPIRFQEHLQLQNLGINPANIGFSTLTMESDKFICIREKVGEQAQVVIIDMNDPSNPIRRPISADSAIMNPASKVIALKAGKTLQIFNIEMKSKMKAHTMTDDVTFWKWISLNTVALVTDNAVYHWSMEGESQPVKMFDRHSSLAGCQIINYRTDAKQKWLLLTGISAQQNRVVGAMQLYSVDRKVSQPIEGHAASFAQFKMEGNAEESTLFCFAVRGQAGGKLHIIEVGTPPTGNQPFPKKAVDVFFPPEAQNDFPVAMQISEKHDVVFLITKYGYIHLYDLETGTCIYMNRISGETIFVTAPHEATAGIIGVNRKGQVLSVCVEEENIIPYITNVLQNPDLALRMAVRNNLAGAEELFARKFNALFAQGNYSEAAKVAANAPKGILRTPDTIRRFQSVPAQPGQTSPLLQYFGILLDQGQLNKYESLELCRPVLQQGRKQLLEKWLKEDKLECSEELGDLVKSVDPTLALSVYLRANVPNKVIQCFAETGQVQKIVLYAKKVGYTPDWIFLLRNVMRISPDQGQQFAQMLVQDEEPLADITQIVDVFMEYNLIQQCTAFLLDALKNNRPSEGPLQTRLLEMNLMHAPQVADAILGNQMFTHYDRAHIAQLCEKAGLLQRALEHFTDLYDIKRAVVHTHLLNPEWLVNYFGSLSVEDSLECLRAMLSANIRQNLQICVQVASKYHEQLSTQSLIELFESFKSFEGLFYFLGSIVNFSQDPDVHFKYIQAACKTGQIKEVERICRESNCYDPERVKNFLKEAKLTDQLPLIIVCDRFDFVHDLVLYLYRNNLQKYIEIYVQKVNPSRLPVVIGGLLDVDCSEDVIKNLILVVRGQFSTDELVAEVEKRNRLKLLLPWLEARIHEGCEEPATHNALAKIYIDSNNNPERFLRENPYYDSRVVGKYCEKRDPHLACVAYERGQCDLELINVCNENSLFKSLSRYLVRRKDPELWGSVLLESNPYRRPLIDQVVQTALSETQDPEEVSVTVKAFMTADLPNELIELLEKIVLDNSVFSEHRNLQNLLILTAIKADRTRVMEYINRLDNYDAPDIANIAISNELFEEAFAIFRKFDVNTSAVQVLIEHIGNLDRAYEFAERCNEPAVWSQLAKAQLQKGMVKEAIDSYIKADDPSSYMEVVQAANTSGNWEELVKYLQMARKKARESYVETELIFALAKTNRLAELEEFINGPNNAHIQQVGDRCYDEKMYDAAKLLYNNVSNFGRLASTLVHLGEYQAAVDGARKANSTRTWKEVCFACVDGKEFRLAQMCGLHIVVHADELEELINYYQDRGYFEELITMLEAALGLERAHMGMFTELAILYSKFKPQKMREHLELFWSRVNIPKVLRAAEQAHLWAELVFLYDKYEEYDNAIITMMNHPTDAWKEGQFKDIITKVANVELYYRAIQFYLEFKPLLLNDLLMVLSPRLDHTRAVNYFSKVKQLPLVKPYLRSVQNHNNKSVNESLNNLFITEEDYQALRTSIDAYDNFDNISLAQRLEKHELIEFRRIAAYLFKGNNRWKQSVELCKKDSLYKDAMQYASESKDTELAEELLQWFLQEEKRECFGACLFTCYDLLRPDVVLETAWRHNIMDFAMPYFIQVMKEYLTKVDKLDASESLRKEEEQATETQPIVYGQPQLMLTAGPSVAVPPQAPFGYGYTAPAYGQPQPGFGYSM
Chain of UniProt A0QU34 (whole entry, looked up): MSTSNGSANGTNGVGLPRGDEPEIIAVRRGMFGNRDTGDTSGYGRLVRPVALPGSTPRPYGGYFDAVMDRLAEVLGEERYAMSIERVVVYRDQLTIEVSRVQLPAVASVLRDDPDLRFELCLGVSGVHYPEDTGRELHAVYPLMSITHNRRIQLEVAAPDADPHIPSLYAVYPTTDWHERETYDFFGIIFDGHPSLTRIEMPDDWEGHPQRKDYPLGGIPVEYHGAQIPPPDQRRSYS
Chain of UniProt Q5JL08 (whole entry, looked up): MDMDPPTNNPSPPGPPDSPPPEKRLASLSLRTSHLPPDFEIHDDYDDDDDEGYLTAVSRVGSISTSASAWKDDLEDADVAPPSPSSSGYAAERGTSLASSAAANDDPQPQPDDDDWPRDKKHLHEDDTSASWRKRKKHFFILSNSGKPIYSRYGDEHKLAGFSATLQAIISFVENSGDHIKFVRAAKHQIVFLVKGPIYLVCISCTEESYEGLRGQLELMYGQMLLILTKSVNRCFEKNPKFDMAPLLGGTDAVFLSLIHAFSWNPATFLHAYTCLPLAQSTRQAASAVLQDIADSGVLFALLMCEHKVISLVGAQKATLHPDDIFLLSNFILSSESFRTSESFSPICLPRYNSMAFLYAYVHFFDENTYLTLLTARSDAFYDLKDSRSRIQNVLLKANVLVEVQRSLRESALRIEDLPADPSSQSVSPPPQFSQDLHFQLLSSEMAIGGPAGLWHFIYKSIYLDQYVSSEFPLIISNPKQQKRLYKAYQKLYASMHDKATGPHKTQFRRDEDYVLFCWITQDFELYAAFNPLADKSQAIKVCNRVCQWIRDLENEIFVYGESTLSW
Chain of UniProt Q96BT3 (whole entry, looked up): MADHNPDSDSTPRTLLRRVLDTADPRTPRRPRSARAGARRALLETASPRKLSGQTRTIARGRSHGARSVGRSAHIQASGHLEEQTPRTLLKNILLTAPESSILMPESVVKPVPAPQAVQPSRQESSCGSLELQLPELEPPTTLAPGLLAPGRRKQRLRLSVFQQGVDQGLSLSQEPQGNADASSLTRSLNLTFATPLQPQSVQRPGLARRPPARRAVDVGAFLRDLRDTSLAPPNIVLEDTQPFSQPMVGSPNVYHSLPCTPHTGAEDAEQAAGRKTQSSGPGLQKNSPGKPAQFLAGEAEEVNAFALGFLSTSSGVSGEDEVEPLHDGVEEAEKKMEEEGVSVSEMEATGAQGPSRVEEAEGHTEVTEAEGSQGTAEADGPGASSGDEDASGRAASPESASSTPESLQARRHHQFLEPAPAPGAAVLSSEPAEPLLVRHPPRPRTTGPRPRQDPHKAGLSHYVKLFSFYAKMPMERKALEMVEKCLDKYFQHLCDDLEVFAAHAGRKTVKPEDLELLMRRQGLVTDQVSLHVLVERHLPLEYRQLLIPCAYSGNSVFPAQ
Chain of UniProt P32912 (whole entry, looked up): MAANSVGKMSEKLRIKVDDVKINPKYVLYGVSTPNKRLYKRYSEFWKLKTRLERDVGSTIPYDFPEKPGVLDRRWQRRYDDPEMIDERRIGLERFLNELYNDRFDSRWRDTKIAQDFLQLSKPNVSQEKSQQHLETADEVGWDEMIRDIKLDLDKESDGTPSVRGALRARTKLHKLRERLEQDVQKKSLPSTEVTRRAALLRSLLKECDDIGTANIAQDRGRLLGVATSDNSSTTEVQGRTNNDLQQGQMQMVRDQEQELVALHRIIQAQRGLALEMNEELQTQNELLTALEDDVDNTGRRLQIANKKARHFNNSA
Chain of UniProt Q61686 (whole entry, looked up): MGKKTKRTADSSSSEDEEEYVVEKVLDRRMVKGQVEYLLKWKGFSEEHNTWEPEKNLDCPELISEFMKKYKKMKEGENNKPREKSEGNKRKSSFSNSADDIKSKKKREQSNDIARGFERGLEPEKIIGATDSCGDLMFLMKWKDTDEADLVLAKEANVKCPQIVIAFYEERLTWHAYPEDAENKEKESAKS
Chain of UniProt Q9TZQ3 (whole entry, looked up): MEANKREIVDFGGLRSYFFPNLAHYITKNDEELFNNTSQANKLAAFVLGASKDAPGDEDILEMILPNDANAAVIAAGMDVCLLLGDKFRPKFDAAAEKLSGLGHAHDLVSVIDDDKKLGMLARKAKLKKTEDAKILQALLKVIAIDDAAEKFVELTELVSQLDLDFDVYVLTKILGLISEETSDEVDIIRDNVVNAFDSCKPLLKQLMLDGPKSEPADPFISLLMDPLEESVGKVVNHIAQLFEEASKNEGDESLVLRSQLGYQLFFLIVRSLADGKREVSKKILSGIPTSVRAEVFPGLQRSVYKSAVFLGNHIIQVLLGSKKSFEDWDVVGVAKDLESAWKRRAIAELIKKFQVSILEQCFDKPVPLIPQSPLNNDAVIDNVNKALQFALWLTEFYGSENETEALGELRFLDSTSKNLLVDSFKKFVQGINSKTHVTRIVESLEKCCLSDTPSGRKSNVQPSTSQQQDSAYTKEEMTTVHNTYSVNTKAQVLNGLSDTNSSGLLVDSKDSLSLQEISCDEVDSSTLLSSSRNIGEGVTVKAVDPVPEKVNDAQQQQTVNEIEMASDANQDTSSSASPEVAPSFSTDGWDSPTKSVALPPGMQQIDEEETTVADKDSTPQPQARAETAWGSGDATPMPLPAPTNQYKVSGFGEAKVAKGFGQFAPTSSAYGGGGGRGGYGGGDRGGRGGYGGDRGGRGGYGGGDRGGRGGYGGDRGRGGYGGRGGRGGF
Chain of UniProt P63151 (whole entry, looked up): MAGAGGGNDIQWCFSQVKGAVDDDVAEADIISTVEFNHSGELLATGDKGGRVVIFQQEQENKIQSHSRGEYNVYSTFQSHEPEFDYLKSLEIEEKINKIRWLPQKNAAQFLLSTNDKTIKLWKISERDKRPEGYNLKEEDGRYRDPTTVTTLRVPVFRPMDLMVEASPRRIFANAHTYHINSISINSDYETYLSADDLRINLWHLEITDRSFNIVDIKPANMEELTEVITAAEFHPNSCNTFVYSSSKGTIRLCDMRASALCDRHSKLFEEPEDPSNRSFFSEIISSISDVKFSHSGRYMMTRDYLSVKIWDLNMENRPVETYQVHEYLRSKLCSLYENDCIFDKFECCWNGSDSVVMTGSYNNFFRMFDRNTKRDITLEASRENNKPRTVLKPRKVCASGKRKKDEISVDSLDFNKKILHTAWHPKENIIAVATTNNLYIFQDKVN

For `B1 (KTN1 965-1124)`, binding read “binds” (QARS1 1-256 (Homo sapiens, UniProt P47897); pull-down).
For `B2 (ATG8a)`, binding read “binds” (MON1 GST fusion (Oryza sativa, UniProt Q5JL08); pull-down).
`KLLITIHDRKEFAKFEEERARAKWDTANNPLYKEATSTFTNITYRGT (ITGB3 742-788 (Homo sapiens, UniProt P05106))`: binding “binds” (TLN1 head 1-405 del139-168 (UniProt P26039); pull-down; GST-β3 tail).
For `B3 (hrdB 1-511)`, binding read “binds” (afsR (Streptomyces coelicolor, UniProt P25941); cryo-EM).
`B4 (MSMEG_2064)`: binding “binds” (NuoC (Mycolicibacterium smegmatis, UniProt A0QU34); cryo-EM).
Under binding, `B5 (WAPL 1-411)` is recorded as “binds” (T1, RAD21/STAG2 Scc1 80-1060?, x; pull-down).
`B6 (PIN2 167-485)` — result for binding: “binds” (ROPGAP3 (Arabidopsis thaliana, UniProt Q8GYY5); pull-down; 4 °C).
The binding of `PPP2R2A (Homo sapiens, UniProt P63151)` is reported as less than 25 % vs wt (ARPP19 R52A (Homo sapiens, UniProt P56211); co-IP; HeLa; baseline: wild-type ARPP19, higher = more binding).
`B7 (CENPW K29A/K30A/R34A/E36A)` — result for binding: “binds” (CENPT (Homo sapiens, UniProt Q96BT3); pull-down).
Under binding, `B8 (NuoA)` is recorded as “binds” (MSMEG_2064 (Mycolicibacterium smegmatis, UniProt A0QU37); cryo-EM).
For `B9 (ife-1)`, binding read “binds” (pgl-1 (Caenorhabditis elegans, UniProt Q9TZQ3); pull-down).
`B10 (VAM3)` — result for binding: “binds” (VAM7 (Saccharomyces cerevisiae, UniProt P32912); co-IP).
Under binding, `B11 (NVJ1 229-321)` is recorded as “binds” (VAC8 1-578 L31R (Saccharomyces cerevisiae, UniProt P39968); pull-down).
`B12 (Cbx1)`: binding “binds” (Cbx5 (Mus musculus, UniProt Q61686); fluorescence polarization).
For `B13 (EPS15 569-671)`, binding read “binds” (CLTC 1-363 (Bos taurus, UniProt P49951); NMR titration).
`B14 (NYV1)` — result for binding: “binds” (VAM3 (Saccharomyces cerevisiae, UniProt Q12241); co-IP).
For `B15 (rplK)`, binding read “binds” (hflX (Mycobacterium smegmatis, UniProt A0QVY1); cryo-EM).
The fold change of `insulin human` is reported as 1.08 (refers to: NAV3 mRNA; EcoHIV-infected mouse, brain; i.p., dose not given; baseline: PBS).
For `B16 (ROPGAP3 1-153)`, binding read “binds” (PIN2 167-485 (Arabidopsis thaliana, UniProt Q9LU77); pull-down; in vitro).
